Published values from different studies.
Protocols differ between the studies behind these lines. Several values in a cell are separate wells, animals, samples, runs or records. ± marks the error that the study gave.
UniProt P51575, sequence (whole entry, unmodified, looked up): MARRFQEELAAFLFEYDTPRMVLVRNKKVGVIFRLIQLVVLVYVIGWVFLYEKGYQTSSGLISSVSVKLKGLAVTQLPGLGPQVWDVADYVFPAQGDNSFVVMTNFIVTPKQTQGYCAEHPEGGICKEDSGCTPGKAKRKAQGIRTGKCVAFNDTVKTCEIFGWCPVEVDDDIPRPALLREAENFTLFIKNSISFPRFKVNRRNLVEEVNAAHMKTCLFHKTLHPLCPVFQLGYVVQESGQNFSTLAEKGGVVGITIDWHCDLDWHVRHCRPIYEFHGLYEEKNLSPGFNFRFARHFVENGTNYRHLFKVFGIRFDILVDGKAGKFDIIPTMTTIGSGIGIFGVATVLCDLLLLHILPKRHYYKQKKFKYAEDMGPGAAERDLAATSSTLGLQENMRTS
UniProt P02769, sequence (whole entry, unmodified, looked up): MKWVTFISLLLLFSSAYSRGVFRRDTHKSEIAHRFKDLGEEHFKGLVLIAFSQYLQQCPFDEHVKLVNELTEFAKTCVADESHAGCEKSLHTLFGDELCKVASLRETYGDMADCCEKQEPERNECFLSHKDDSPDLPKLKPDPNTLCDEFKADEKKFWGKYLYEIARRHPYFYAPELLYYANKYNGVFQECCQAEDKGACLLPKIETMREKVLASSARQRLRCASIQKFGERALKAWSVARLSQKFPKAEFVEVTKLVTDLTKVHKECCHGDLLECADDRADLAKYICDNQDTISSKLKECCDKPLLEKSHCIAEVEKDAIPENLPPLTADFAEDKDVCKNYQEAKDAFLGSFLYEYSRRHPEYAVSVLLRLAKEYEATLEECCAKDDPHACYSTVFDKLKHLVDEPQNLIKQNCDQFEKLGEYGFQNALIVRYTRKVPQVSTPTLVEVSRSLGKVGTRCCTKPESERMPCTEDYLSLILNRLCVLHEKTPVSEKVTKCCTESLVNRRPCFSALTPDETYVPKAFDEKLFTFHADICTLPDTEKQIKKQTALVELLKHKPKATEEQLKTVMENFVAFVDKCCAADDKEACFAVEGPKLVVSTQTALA
UniProt Q9PHN5, sequence (whole entry, looked up): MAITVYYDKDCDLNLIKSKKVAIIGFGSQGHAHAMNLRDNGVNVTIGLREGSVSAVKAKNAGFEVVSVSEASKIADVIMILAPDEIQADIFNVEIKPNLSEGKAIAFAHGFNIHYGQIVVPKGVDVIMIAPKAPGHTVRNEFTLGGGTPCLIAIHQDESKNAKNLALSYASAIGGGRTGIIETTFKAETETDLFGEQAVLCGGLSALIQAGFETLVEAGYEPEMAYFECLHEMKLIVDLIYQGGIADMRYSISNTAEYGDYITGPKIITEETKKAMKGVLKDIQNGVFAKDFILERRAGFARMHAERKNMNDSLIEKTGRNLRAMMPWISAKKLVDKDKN
UniProt Q14680, sequence (whole entry, looked up): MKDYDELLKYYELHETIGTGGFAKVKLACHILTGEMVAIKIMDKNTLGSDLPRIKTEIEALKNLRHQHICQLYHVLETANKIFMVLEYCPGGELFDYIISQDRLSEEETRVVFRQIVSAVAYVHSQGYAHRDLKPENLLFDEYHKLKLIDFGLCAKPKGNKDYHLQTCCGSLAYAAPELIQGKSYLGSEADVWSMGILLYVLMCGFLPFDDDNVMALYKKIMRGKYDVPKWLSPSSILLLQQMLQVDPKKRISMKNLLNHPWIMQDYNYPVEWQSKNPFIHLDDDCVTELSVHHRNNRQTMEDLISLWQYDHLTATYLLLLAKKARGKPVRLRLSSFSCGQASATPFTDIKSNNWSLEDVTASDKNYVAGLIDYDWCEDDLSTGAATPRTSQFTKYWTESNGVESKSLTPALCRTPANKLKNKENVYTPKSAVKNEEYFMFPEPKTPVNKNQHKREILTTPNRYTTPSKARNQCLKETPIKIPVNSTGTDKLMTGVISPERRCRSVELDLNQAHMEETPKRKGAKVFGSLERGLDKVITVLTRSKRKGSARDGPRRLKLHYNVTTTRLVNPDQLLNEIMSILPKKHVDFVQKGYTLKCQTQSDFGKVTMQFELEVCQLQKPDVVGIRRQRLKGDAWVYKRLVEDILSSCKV
UniProt P00441, sequence (whole entry, unmodified, looked up): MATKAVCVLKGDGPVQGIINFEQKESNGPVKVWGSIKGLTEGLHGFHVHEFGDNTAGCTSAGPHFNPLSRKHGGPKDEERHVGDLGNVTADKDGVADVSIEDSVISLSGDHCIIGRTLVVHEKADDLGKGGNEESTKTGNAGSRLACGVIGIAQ
UniProt P13945, sequence (whole entry, looked up): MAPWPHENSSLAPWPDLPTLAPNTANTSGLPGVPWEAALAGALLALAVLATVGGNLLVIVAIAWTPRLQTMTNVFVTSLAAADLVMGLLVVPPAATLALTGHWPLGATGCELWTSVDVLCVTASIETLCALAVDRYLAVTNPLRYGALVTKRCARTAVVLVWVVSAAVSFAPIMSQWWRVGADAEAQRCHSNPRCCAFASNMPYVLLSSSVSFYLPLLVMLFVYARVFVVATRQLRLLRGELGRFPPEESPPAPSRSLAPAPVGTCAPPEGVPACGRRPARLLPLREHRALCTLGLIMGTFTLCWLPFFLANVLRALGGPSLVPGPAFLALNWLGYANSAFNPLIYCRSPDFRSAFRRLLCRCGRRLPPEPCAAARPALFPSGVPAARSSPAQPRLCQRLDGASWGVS

Cc1nc2[nH]c(=O)n(O)c(=O)c2s1 — kon (Ketol-acid reductoisomerase (NADP(+)) (ilvC, Campylobacter jejuni subsp. jejuni serotype O:2, UniProt Q9PHN5); slow-binding inhibitor; Campylobacter jejuni): 3630 M⁻¹ s⁻¹
Cc1ncsc1-c1ccc(CNC(=O)[C@@H]2C[C@@H](O)CN2C(=O)[C@@H](NC(=O)C2(F)CC2)C(C)(C)C)c(OCCOCCOCCN2CCN(c3cc(-c4ccccc4O)nnc3N)CC2)c1 — cooperativity factor alpha (SWI/SNF-related matrix-associated actin-dependent regulator of chromatin subfamily A member 4, bromodomain (SMARCA4, Homo sapiens, UniProt P51532); ternary complex binding, TR-FRET competition; with: VCB complex): 13
Cc1cc(Nc2cc(N3CCN(C)CC3)nc(Sc3ccc(NC(=O)C4CC4)cc3)n2)[nH]n1 — remaining activity (Maternal embryonic leucine zipper kinase (MELK, Homo sapiens, UniProt Q14680); kinase activity, KinaseProfiler; 0.03 µM, species human; relative to: control): 92%
NCC[C@H](O)C(=O)N[C@@H]1C[C@H](N)[C@@H](O[C@H]2O[C@H](CN)[C@@H](O)[C@H](O)[C@H]2O)[C@H](O)[C@H]1O[C@H]1O[C@H](CO)[C@@H](O)[C@H](N)[C@H]1O — ΔG° (Albumin (ALB, Bos taurus, UniProt P02769); binding, tryptophan fluorescence quenching; pH 7.4, 289 K): -24.8 kJ/mol
[O-][S+]1CCCCS1 (stereo not shown) — SOD1 monomer fraction (Superoxide dismutase [Cu-Zn] (SOD1, Homo sapiens, UniProt P00441, G94A); LC-MS; human whole blood; 50 µM, 1 h, 37 °C): 90.6%
CCCC(CCC)c1nc2c(Nc3ccc(C#CCCCCCCCCN)cc3)nc3ccccc3c2[nH]1 — off-target affinity (Beta-3 adrenergic receptor (ADRB3, Homo sapiens, UniProt P13945); PDSP screening): inactive
O=C(NCCN1CCCC1=O)c1ccc([C@H]2[C@@H](F)[C@@H](F)C[C@@H](F)[C@H]2F)cc1 — hepatic clearance (liver microsome stability; cynomolgus liver microsomes; 1 µM): 0.6 L/h/kg
CC[C@H](C)[C@@H]1NC(=O)[C@H]([C@@H](C)CC)NC(=O)[C@@H](Cc2ccc(O)cc2)NC(=O)CSC[C@@H](C(N)=O)NC(=O)[C@H](CCCNC(=N)N)NC(=O)[C@H](CCCCN)NC(=O)[C@H](CC(C)C)NC(=O)[C@H](CO)NC(=O)[C@H](CO)NC(=O)[C@H](CC(C)C)NC(=O)[C@H](Cc2ccccc2)NC(=O)[C@H](C(C)C)NC(=O)CNC(=O)[C@H](CC(C)C)NC(=O)[C@@H]2CCCN2C(=O)[C@H]([C@@H](C)O)NC(=O)[C@H](CC(=O)O)NC1=O — -TΔS (Vacuolar protein sorting-associated protein 29 (VPS29, Homo sapiens, UniProt Q9UBQ0); binding, ITC; 25 °C, protein alone): 19.2 ± 1.26 kJ/mol
CC[C@H](C)[C@H](NC(=O)[C@H](Cc1ccccc1)NC(=O)[C@H](CCC(=O)O)NC(=O)[C@H](CCCNC(=N)N)NC(=O)[C@H](C)NC(=O)[C@H](C)NC(=O)[C@H](CCC(N)=O)NC(=O)[C@H](CCC(=O)O)NC(=O)[C@H](CCC(=O)O)NC(=O)[C@H](CC(C)C)NC(=O)[C@H](Cc1ccc(O)cc1)NC(=O)[C@H](CO)NC(=O)[C@H](CO)NC(=O)[C@@H](NC(=O)[C@H](CC(=O)O)NC(=O)[C@H](CO)NC(=O)[C@@H](NC(=O)[C@H](Cc1ccccc1)NC(=O)[C@@H](NC(=O)CNC(=O)[C@H](CCC(=O)O)NC(=O)[C@H](C)NC(=O)CCc1cnc[nH]1)[C@@H](C)O)[C@@H](C)O)C(C)C)C(=O)N[C@@H](C)C(=O)N[C@@H](Cc1c[nH]c2ccccc12)C(=O)N[C@@H](CC(C)C)C(=O)N[C@H](C(=O)N[C@@H](CCCNC(=N)N)C(=O)NCC(=O)N[C@@H](CCCNC(=N)N)C(=O)N[C@@H](CCCCNC(=O)COCCOCCNC(=O)COCCOCCNC(=O)CC[C@H](NC(=O)CCCCCCCCCCCCCCCCC(=O)O)C(=O)O)C(=O)NCC(=O)NCC(=O)N[C@@H](CO)C(=O)N[C@@H](CCCCNc1c(NCCCCCN(O)C(=O)CCC(=O)NCCCCCN(O)C(=O)CCC(=O)NCCCCCN(O)C(C)=O)c(=O)c1=O)C(=O)NCC(=O)NCC(=O)N[C@@H](CO)C(=O)N[C@@H](CCCCNc1c(NCCCCCN(O)C(=O)CCC(=O)NCCCCCN(O)C(=O)CCC(=O)NCCCCCN(O)C(C)=O)c(=O)c1=O)C(=O)NCC(=O)NCC(=O)N[C@@H](CO)C(=O)N[C@@H](CCCCNc1c(NCCCCCN(O)C(=O)CCC(=O)NCCCCCN(O)C(=O)CCC(=O)NCCCCCN(O)C(C)=O)c(=O)c1=O)C(=O)O)C(C)C — fold potency loss (Glucagon-like peptide 1 receptor (GLP1R, Homo sapiens, UniProt P43220); agonist, CRE luciferase reporter; BHK cells; metal-free DFO conjugate, with: 1% HSA; relative to: parent peptide): 4.9
CC(C(=O)Nc1ccc(C2CCCCC2)cc1)n1cncn1 (stereo not shown) — hepatic clearance (cryopreserved human hepatocytes; 1 µM): 0.78 L/h/kg
Cn1cc(-c2ccc(-c3cncc(Cl)c3N3CCC4(CCNC4=O)CC3)cc2)cn1 — log2 fold change (COLO 205; gene expression, microarray, item: ANXA2 mRNA; concentration not given, 6 h; relative to: untreated cells): 1.75
COc1cc(Nc2ncc3c(n2)-c2ccc(Cl)cc2C(c2c(F)cccc2OC)=NC3)ccc1C(=O)O — remaining activity (MRCK beta (CDC42BPB); inhibitor, biochemical kinase; 1 µM): 97%
Nc1ncnc2c1ncn2[C@@H]1O[C@H](COP(=O)(O)CP(=O)(O)OP(=O)(O)O)[C@@H](O)[C@H]1O — specific binding (P2X purinoceptor 1 (P2RX1, Homo sapiens, UniProt P51575, K140A); saturation binding; HEK293; 52 nM): 6140 CCPM and 2940 CCPM and 1880 CCPM

Some of these lines once more:
CC[C@H](C)[C@H](NC(=O)[C@H](Cc1ccccc1)NC(=O)[C@H](CCC(=O)O)NC(=O)[C@H](CCCNC(=N)N)NC(=O)[C@H](C)NC(=O)[C@H](C)NC(=O)[C@H](CCC(N)=O)NC(=O)[C@H](CCC(=O)O)NC(=O)[C@H](CCC(=O)O)NC(=O)[C@H](CC(C)C)NC(=O)[C@H](Cc1ccc(O)cc1)NC(=O)[C@H](CO)NC(=O)[C@H](CO)NC(=O)[C@@H](NC(=O)[C@H](CC(=O)O)NC(=O)[C@H](CO)NC(=O)[C@@H](NC(=O)[C@H](Cc1ccccc1)NC(=O)[C@@H](NC(=O)CNC(=O)[C@H](CCC(=O)O)NC(=O)[C@H](C)NC(=O)CCc1cnc[nH]1)[C@@H](C)O)[C@@H](C)O)C(C)C)C(=O)N[C@@H](C)C(=O)N[C@@H](Cc1c[nH]c2ccccc12)C(=O)N[C@@H](CC(C)C)C(=O)N[C@H](C(=O)N[C@@H](CCCNC(=N)N)C(=O)NCC(=O)N[C@@H](CCCNC(=N)N)C(=O)N[C@@H](CCCCNC(=O)COCCOCCNC(=O)COCCOCCNC(=O)CC[C@H](NC(=O)CCCCCCCCCCCCCCCCC(=O)O)C(=O)O)C(=O)NCC(=O)NCC(=O)N[C@@H](CO)C(=O)N[C@@H](CCCCNc1c(NCCCCCN(O)C(=O)CCC(=O)NCCCCCN(O)C(=O)CCC(=O)NCCCCCN(O)C(C)=O)c(=O)c1=O)C(=O)NCC(=O)NCC(=O)N[C@@H](CO)C(=O)N[C@@H](CCCCNc1c(NCCCCCN(O)C(=O)CCC(=O)NCCCCCN(O)C(=O)CCC(=O)NCCCCCN(O)C(C)=O)c(=O)c1=O)C(=O)NCC(=O)NCC(=O)N[C@@H](CO)C(=O)N[C@@H](CCCCNc1c(NCCCCCN(O)C(=O)CCC(=O)NCCCCCN(O)C(=O)CCC(=O)NCCCCCN(O)C(C)=O)c(=O)c1=O)C(=O)O)C(C)C — fold potency loss (Glucagon-like peptide 1 receptor (GLP1R, Homo sapiens, UniProt P43220); agonist, CRE luciferase reporter; BHK cells; metal-free DFO conjugate, with: 1% HSA; relative to: parent peptide): 4.9
